Measured values gathered from unrelated publications.
Each line is one published result; not all experiments were run side by side. Numbers after ± are the reported error. Ends that are not written are not given here.

Substance	tested on	assay	system	conditions	scale	quantity	result
CC(=O)N[C@@H](CC(C)C)C(=O)N[C@@H](CC(C)C)C(=O)N[C@H](C=O)CCCNC(=N)N	trypsin	spike protein cleavage, inhibitor	SARS-CoV-2	100 µM, with: trypsin 25 nM		proteolysis	inhibited
CC(Nc1nc(N2CCNCC2C)nc2ccccc12)c1ccccc1 (centres unmarked)	SARS-CoV-2	cytopathic effect, cell-based CPE	USA_WA1/2020	round 2, 5-point dilution		maximal response	98.4%
O=c1c2ccccc2[se]n1-c1ccccc1	Enterovirus A71 3C protease	enzyme activity, FRET				IC50	> 60000 nM
CCC(CC)O[C@@H]1C=C(C(=O)O)C[C@H](N)[C@H]1NC(C)=O	neuraminidase N1 swine influenza		influenza A virus, swine strains	mean		IC50	1.26 nM
C=C(C)[C@@H]1CC[C@]2(C(=O)Nc3ccc4ccccc4c3)CC[C@]3(C)[C@H](CC[C@@H]4[C@@]5(C)CC[C@H](O[C@@H]6O[C@H](CO)[C@@H](O[C@@H]7O[C@@H](C)[C@H](O)[C@@H](O)[C@H]7O)[C@H](O)[C@H]6O[C@@H]6O[C@@H](C)[C@H](O)[C@@H](O)[C@H]6O)C(C)(C)[C@@H]5CC[C@]43C)[C@@H]12	SARS-CoV-2 Omicron spike glycoprotein		spike-expressing cells, SARS-CoV-2 Omicron	10 µM		cell-cell fusion inhibition	inhibited
Cc1cc(C)n2c(Nc3ccc4c(c3)OCCO4)c(-c3cccc(Br)c3)nc2n1	hemagglutinin H7 (influenza A virus)	pseudovirus entry	A549			EC50	250 ± 130 nM
CCN(CC)C(=S)SSC(=S)N(CC)CC	Enterovirus A71 2A protease	enzyme activity, FRET				IC50	> 60000 nM
CC(=O)N[C@H]1[C@H]([C@H](O)[C@H](O)CO)OC(C(=O)O)=C[C@@H]1N=C(N)N	neuraminidase N1 swine influenza		influenza A virus, swine strains	mean		IC50	0.26 nM
O=c1sn(-c2cccc3ccccc23)c(=O)n1Cc1ccccc1	Enterovirus A71 3C protease	enzyme activity, FRET				IC50	> 60000 nM
QPLRKLCILHRNPGRCYQKIPAFYYNQKKKQCEGFTWSGCGGNSNRFKTIEECRRTCIRK (dendrotoxin I; ends and bridges not checked; cysteine pairing not given here; sequence looked up)	maxi-KCa channel, rat muscle	channel current, planar bilayer single-channel		concentration not given, internal, +30 mV	baseline: unitary current	substate current level	~60%
COc1ccc2cc3[n+](cc2c1OC)CCc1cc2c(cc1-3)OCO2	SARS-CoV-2 envelope protein		Vero C1008	20 µg/mL		inhibition	87.5 ± 6.9%
CCCCSCCCNC(=O)C1CCN(Cc2nc(-c3ccc(CC)cc3)oc2C)CC1	SARS-CoV-2	cytopathic effect	USA_WA1/2020	retest 8-point		maximum response	80%
c1ccc(C(NCCNC(c2ccccc2)c2ccccc2)c2ccccc2)cc1	strychnine-sensitive glycine receptor, rat	binding		10 µM, Eurofins selectivity panel		inhibition	-8%
CC[C@H](C)[C@H](NC(=O)[C@H](CC(C)C)NC(=O)[C@H](Cc1c[nH]c2ccccc12)NC(=O)[C@H](CCC(N)=O)NC(=O)[C@@H](NC(=O)[C@H](Cc1ccccc1)NC(=O)[C@H](C)NC(=O)[C@H](CCCCNC(=O)COCCOCCNC(=O)COCCOCCNC(=O)CC[C@H](NC(=O)CCCCCCCCCCCCCCCCCCC(=O)O)C(=O)O)NC(=O)[C@H](CCC(N)=O)NC(=O)[C@H](C)NC(=O)[C@@H](NC(=O)[C@H](CCCCN)NC(=O)[C@H](CC(=O)O)NC(=O)[C@H](CC(C)C)NC(=O)C(C)(C)NC(=O)[C@@H](NC(=O)[C@H](CO)NC(=O)[C@H](Cc1ccc(O)cc1)NC(=O)[C@H](CC(=O)O)NC(=O)[C@H](CO)NC(=O)[C@@H](NC(=O)[C@H](Cc1ccccc1)NC(=O)[C@@H](NC(=O)CNC(=O)[C@H](CCC(=O)O)NC(=O)C(C)(C)NC(=O)[C@@H](N)Cc1ccc(O)cc1)[C@@H](C)O)[C@@H](C)O)[C@@H](C)CC)[C@@H](C)CC)C(C)C)C(=O)N[C@@H](C)C(=O)NCC(=O)NCC(=O)N1CCC[C@H]1C(=O)N[C@@H](CO)C(=O)N[C@@H](CO)C(=O)NCC(=O)N[C@@H](C)C(=O)N1CCC[C@H]1C(=O)N1CCC[C@H]1C(=O)N1CCC[C@H]1C(=O)N[C@@H](CO)C(N)=O			healthy subjects, single ascending dose	0.5 mg, postbaseline		treatment-emergent ADA positive subjects	0%
CCC(C)SSc1ncc[nH]1 (centres unmarked)	Enterovirus A71 3C protease	enzyme activity, FRET				IC50	> 60000 nM
Cn1cnc(Cn2c(=O)[nH]/c(=N\c3cc4cn(C)nc4cc3Cl)n(Cc3cc(F)c(F)cc3F)c2=O)n1			human, moderate renal impairment	oral, 375 mg		treatment-related TEAE, Moderate severity	12.5%
CNC(=O)[C@@H](NC(=O)[C@H](CC(C)C)[C@H](O)C(=O)NO)C(C)(C)C	Daboia russelii venom proteases (SVMP)	protease activity, inhibitor	RJ population	10 µM, with: azocasein substrate	baseline: venom alone	remaining activity	0%
CC(C)=CC[C@@H](O)C1=CC(=O)c2c(O)ccc(O)c2C1=O	Enterovirus A71 3C protease	enzyme activity, FRET				IC50	> 60000 nM
GsMTx4	stretch-activated cation channel, rat	ion current, outside-out patch clamp	rat astrocytes	5 µM, applied 1 s after pressure onset, -50 mV, 29 steps		current decay time constant	594 ± 10 ms
Nc1ncnc2c([C@@H]3N[C@H](CO)[C@@H](O)[C@H]3O)c[nH]c12	Zaire ebolavirus	viral replication, inhibitor	human Macrophage	25 µM		inhibition	24%

For quick reference, copied from above:
Substance	tested on	assay	system	conditions	scale	quantity	result
CCN(CC)C(=S)SSC(=S)N(CC)CC	Enterovirus A71 2A protease	enzyme activity, FRET				IC50	> 60000 nM
